Experimental data from different studies.
Numbered parts are unrelated; each lists some results of a single study. Positions count from the first letter of the parent shown.

Set 1
Target: Fragile X messenger ribonucleoprotein 1, C-terminal low-complexity region (Fmr1, Mus musculus, UniProt P35922)
Technique: RNA Bind-n-Seq
Form: RNA
Sample: in vitro
Tested at: 200 nM
Setting: whole 134-nt RNA, ends assumed
With: 150 mM KCl
Baseline: input library
Reading: higher = stronger binding
Shared flanks, not repeated: GGGAGUUCUACAGUCCGACGAUC … UGGAAUUCUCGGGUGUCAAGG
Strand | log2 enrichment
CACAGACAACACGCACCCACACAGACACAGAGGGAAGGGGUUGGGAUGGGGACAGGGUGCAGAGCAGGGCGGGGUAGGACCCCAGCCCCU | 1.18
CCUGUGCUACACAUCGUAUGUACCGAAUCAAAUUUUUUUAAAUUUUUUUAAAUUUUUAAAAAAGUAUUAUGUUACGCCGUUCGGAUCUGC | -1.06
UGGCCCUGGUGGCAUGCGGGGAGGAAGAGGUGGCCUCAUGGAUCGUGGUGGUCCCGGUGGAAUGUUCAGAGUUGGCCGUGGUGGAGACAG | 0.184
ACCAUGCAGGUGGGCAUCUUUGGGACGUGGGGCAAGGGGGGGAUAGGGAGGGGGGUAACACUUUGGGAACAGGUGGUCCCAGGUCGUUUC | 0.983
CUCAAGUCCUGUGCUACACAUCGUAUGUACCGAAUCGGGGUGGGGUGGGUGGGAAAGUAUUAUGUUACGCCGUUCGGAUCUGCACUUCCA | 1.3
GUCCUGUGCUACACAUCGUAUGUACCGAAUCGGGGAAAAAGGGGAAAAAGGGGAGGGGAAAGUAUUAUGUUACGCCGUUCGGAUCUGCAC | 0.534
UGGCAGCGGCCAUGGACCGCUUCGUUUGGACCAGCGGCCUCCUGGAGAUCAACGAGACCCUGGUGAUCCAGCAGCGCGGGGUGCGAAUCU | -0.738
AGUCCUGUGCUACACAUCGUAUGUACCGAAUCGGGGUUUUUGGGGUGGGGUUUGGGGAAAGUAUUAUGUUACGCCGUUCGGAUCUGCACU | 0.963
CCUGUGCUACACAUCGUAUGUACCGAAUCAAAUUUUUUUAAACCCCCCCAAAUUUUUAAAAAAGUAUUAUGUUACGCCGUUCGGAUCUGC | 0.177

Set 2
Target: Histone acetyltransferase KAT6A, winged helix 2, GST fusion (KAT6A, Homo sapiens, UniProt Q92794, residues 85-181)
Technique: protein binding microarray
Form: double-stranded DNA, one strand shown
Sample: in vitro
Tested at: not given
Setting: 8-mer, flanks averaged, mean of 2 arrays, mostly near background
Baseline: not given
Reading: higher = stronger binding
Target sequence (chain): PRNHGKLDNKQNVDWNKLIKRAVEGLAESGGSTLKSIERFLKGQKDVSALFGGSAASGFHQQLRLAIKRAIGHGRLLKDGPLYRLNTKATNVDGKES
Strand | E-score
GGGAATAA | 0.0351
ACATACAT | -0.174
AACGTTAT | -0.27
AACTCCTG | -0.0571
AGTGAATC | -0.0513
AGGATGGA | -0.0569
GCGTAATA | -0.0622
ATTGACGG | -0.0146
GACTACGC | -0.0498
CAGCACTA | -0.0086
AACAAGTC | -0.0142
CGAGGCAA | 0.114
AAGCATGT | -0.0352

Set 3
Target: RNA binding protein fox-1 homolog 2, RRM domain, GST-SBP tag (RBFOX2, Homo sapiens, UniProt O43251-10, residues 100-194)
Technique: RNA Bind-n-Seq
Form: RNA
Sample: in vitro
Tested at: 365 nM
Setting: natural RNA segment, single round, ends assumed
Baseline: no-protein control
Reading: higher = stronger binding
Shared flanks, not repeated: GGGAGUUCUACAGUCCGACGAUC … UGGAAUUCUCGGGUGCCAA
Strand | RBNS enrichment (R)
AAUAAUAGAAUGAGCACCCAUUCCAAAGCUUUAUUACCAGUGGCGUUGUUGCAUGUUUGAAAUGAGGUCUGUUUAAAGUGGCAAUCUCAGAUGCAGUUUGGAGAGUCAGA | 16.2
GUGGACCCUGGUUGUAAAGAGUAAAUUGUAUCUUAGGAAACCAGUGUCACCUUUUUUUCACCUUUUAAUUUUAUAUUAUUUGCGUCAUACAUUUCCUGUAACGGAAGUGU | 0.402
CCAAGGUCACGAGAAGCAGCCAGAGUGCCCCGCCUCCGCCGGCUCUGGUCUGCCAUUCGCCAGUGCAGGGAUCUGGCACGGACCAGAUGUGGCGAAUGGCAGCACAGCGC | 1.02
UGAGUUGUCUAAGAUCAGGACUGUUUUGAUAUCUGACCUUGUUAUAUGCGGAGAGUAAAUGCAAAAAUGCUAAGAGUAAUGCAUCAUGUAUUGAAUAUUAAGUGUCACUG | 0.527
UGAAAAUAUGUAAAGCUGUUGAGAUGUGUUUACUUAUACUUCAGAACAUUAAAAGUUUAAAAACUGGAUUUCAGAUCAAAGAGGCAUCAUUAUCUUUAUUCUGUUUUUCA | 0.789
CUACUGUCUGUUGGUUCCAAUAUUCUCCCACUGCUAGAGCUUCCUGUUAAGCAAGUGUGAUCUGCAACAUUUUUUCAACUUUUGCUAGCACUGUAUACUAUUGCAUUCUU | 1.36
AGCUCCAGACAGCAAGAGCCCAGGUGCACUGCUCACACCCCCACCUGCAUUUUGAAGUCAUAUUAUUUUUUGUUUUGUUUUUUAAGACGGUCUGGCUCUGUCGCCUAAGC | 16.7
CUUCUCCGCAGCAAGAUAUGAAAACCUUUUCAGUGCUUGCCCUCAGCAGCUAAGAAGACAGACAGUAGAGAAUGUGAGAGGAUCUCAUGGUUCUGAUGAUGAUUAUCCAA | 1.19

Set 4
Target: Sal-like protein 4, full length isoform B (SALL4, Homo sapiens, UniProt Q9UJQ4-2, residues 1-616)
Technique: universal PBM
Form: double-stranded DNA, one strand shown
Sample: in vitro
Tested at: not given
Setting: 8-mer, flanks averaged, mean of replicates
Reading: higher = stronger binding
Strand | E-score
GAGACTAA | 0.167
AGTAAGAA | 0.0983
ATCGTTCC | -0.122
CATCTTAA | 0.127
AAGTTCCA | -0.009
CTCATTCA | 0.0779
GTCGTGCA | -0.127
GACCCTGC | -0.171
GGCGCGTA | -0.184
CGAGCTGA | -0.169
GGTCGACC | -0.211
AGCTAACT | 0.0102
CAAAGTCA | 0.0679
CCTAATAC | 0.174
AAGAACAC | 0.00299
AACATAAG | 0.243
GTTGATAA | 0.261
GCCCCGCA | -0.356
CGTATAAC | 0.176
AATACGGG | -0.00447
CAACAGTG | -0.0438
ATAGGAAC | 0.16
CCCTACAA | 0.0462
ATGGCTAG | 0.0226
CATTCACA | 0.121

Set 5
Target: ABI1, truncated, D143A, DHFR fusion (Arabidopsis thaliana)
Technique: DHFR PCA, deep sequencing
Sample: yeast
Setting: methotrexate growth selection, single substitutions
With: (+)-ABA 0 µM
Baseline: wild-type fitted maximum
Reading: higher = stronger binding
Parent: PYL1, truncated, DHFR fusion (Arabidopsis thaliana); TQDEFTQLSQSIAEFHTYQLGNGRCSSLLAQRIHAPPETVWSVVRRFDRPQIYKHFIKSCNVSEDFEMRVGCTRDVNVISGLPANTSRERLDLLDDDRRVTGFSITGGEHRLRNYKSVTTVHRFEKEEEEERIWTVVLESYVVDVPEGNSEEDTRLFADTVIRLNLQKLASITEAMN
Change | relative binding score [%]
T106F | 2.16
S104T | 33.6
L29I | 33.5
D144S | -3.13
I79S | 17.2
R74I | 1.96
V40W | -3.15
Y141P | -1.29
S104N | -0.65
N77V | 56.1
E109D | 69.3
R113I | 17.7
E89V | 2.13
V161G | -6.09

Repeated from above (set 3):
Strand | RBNS enrichment (R)
AAUAAUAGAAUGAGCACCCAUUCCAAAGCUUUAUUACCAGUGGCGUUGUUGCAUGUUUGAAAUGAGGUCUGUUUAAAGUGGCAAUCUCAGAUGCAGUUUGGAGAGUCAGA | 16.2
GUGGACCCUGGUUGUAAAGAGUAAAUUGUAUCUUAGGAAACCAGUGUCACCUUUUUUUCACCUUUUAAUUUUAUAUUAUUUGCGUCAUACAUUUCCUGUAACGGAAGUGU | 0.402
CCAAGGUCACGAGAAGCAGCCAGAGUGCCCCGCCUCCGCCGGCUCUGGUCUGCCAUUCGCCAGUGCAGGGAUCUGGCACGGACCAGAUGUGGCGAAUGGCAGCACAGCGC | 1.02
UGAGUUGUCUAAGAUCAGGACUGUUUUGAUAUCUGACCUUGUUAUAUGCGGAGAGUAAAUGCAAAAAUGCUAAGAGUAAUGCAUCAUGUAUUGAAUAUUAAGUGUCACUG | 0.527
UGAAAAUAUGUAAAGCUGUUGAGAUGUGUUUACUUAUACUUCAGAACAUUAAAAGUUUAAAAACUGGAUUUCAGAUCAAAGAGGCAUCAUUAUCUUUAUUCUGUUUUUCA | 0.789
CUACUGUCUGUUGGUUCCAAUAUUCUCCCACUGCUAGAGCUUCCUGUUAAGCAAGUGUGAUCUGCAACAUUUUUUCAACUUUUGCUAGCACUGUAUACUAUUGCAUUCUU | 1.36
AGCUCCAGACAGCAAGAGCCCAGGUGCACUGCUCACACCCCCACCUGCAUUUUGAAGUCAUAUUAUUUUUUGUUUUGUUUUUUAAGACGGUCUGGCUCUGUCGCCUAAGC | 16.7
CUUCUCCGCAGCAAGAUAUGAAAACCUUUUCAGUGCUUGCCCUCAGCAGCUAAGAAGACAGACAGUAGAGAAUGUGAGAGGAUCUCAUGGUUCUGAUGAUGAUUAUCCAA | 1.19
